Measured values pooled from the literature.
A part holds a random share of what one study measured. ± marks the error that the study gave.
UniProt Q02750, sequence (whole entry, looked up): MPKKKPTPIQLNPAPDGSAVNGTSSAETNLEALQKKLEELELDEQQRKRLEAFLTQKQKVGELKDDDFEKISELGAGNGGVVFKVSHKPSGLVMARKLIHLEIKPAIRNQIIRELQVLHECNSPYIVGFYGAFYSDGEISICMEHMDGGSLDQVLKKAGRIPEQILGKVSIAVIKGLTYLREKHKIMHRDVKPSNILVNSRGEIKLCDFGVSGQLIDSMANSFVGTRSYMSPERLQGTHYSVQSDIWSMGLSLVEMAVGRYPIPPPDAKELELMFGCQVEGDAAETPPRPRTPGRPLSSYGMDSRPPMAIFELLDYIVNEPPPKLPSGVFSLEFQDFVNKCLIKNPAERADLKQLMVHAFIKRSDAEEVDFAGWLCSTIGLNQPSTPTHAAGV
UniProt Q99558, sequence (whole entry, looked up): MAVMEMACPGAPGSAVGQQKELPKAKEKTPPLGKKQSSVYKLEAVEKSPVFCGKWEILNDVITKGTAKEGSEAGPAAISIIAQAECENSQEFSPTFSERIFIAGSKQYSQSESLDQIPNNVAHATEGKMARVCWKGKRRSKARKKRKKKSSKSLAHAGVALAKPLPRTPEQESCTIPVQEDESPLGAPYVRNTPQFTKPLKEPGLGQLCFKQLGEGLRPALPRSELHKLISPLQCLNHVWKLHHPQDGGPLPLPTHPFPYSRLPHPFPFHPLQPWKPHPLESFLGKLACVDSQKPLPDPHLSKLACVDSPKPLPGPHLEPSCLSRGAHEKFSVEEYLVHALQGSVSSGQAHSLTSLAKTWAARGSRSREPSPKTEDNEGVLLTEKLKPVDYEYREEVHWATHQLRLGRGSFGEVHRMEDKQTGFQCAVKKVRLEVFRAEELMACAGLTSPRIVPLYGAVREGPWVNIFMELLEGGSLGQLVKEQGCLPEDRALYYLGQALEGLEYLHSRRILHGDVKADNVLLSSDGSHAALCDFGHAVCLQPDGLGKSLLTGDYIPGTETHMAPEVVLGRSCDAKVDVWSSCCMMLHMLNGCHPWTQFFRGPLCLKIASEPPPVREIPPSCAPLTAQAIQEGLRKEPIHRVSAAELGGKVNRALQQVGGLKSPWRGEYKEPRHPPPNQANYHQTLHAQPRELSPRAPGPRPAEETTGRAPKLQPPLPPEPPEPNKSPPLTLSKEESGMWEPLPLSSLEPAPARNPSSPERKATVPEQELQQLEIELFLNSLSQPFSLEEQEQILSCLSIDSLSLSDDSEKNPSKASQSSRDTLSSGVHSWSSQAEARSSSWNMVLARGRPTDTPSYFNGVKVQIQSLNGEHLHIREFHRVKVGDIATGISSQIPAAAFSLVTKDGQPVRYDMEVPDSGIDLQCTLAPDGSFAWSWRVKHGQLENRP
UniProt P22455, sequence (whole entry, looked up): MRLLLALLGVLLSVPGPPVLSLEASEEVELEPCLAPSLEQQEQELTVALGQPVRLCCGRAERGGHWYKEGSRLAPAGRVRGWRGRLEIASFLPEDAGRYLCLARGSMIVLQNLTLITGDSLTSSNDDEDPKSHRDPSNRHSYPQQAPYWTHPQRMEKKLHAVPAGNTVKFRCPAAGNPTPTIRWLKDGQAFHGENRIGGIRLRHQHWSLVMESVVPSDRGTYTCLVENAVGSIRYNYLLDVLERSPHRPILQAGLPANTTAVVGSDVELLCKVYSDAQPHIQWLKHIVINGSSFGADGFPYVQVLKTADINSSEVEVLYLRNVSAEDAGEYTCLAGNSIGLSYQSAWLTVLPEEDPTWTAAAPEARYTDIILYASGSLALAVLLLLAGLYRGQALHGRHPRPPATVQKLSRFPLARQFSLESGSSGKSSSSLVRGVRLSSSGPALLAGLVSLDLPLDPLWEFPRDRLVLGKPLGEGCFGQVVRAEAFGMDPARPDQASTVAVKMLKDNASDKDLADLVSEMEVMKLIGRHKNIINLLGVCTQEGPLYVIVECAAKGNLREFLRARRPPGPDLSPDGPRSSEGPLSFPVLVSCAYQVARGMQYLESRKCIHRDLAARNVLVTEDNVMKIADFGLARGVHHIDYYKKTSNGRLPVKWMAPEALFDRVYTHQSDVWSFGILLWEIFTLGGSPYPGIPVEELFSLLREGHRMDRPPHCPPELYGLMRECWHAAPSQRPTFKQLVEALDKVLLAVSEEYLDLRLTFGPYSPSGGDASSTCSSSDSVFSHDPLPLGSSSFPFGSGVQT
UniProt O75914, sequence (whole entry, looked up): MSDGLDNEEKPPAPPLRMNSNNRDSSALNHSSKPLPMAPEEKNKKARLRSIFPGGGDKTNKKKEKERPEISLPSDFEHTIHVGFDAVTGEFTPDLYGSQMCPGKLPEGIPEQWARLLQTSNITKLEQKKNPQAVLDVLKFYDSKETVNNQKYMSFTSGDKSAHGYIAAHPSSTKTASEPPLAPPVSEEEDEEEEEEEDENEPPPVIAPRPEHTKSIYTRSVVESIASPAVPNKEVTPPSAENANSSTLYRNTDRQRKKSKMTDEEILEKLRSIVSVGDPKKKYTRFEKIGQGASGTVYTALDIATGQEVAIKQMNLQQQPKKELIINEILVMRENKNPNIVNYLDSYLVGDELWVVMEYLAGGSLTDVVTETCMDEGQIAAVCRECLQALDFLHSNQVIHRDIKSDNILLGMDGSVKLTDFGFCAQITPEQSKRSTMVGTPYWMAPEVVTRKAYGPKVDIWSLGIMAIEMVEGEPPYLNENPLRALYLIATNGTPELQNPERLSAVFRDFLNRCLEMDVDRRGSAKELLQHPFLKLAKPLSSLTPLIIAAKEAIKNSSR
UniProt Q7KZI7, sequence (whole entry, looked up): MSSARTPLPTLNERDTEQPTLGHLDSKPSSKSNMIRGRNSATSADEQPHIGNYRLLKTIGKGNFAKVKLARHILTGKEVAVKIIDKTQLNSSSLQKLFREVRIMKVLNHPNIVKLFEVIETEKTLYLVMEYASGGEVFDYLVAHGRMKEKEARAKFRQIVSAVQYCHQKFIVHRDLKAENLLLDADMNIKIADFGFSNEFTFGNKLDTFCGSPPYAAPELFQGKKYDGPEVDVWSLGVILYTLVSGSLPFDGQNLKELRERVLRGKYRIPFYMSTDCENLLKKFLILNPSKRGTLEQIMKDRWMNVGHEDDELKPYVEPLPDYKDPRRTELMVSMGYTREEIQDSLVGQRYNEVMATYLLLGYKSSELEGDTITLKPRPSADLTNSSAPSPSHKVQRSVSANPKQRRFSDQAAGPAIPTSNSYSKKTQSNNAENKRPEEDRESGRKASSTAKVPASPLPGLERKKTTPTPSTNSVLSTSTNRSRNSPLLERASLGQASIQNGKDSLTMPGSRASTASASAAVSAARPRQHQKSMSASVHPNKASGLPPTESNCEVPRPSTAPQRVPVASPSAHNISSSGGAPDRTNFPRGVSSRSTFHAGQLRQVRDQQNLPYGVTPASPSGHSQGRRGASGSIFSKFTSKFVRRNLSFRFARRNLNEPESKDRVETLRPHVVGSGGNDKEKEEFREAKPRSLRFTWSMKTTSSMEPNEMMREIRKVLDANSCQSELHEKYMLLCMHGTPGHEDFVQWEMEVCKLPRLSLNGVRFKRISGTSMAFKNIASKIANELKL
UniProt Q9H4B4, sequence (whole entry, looked up): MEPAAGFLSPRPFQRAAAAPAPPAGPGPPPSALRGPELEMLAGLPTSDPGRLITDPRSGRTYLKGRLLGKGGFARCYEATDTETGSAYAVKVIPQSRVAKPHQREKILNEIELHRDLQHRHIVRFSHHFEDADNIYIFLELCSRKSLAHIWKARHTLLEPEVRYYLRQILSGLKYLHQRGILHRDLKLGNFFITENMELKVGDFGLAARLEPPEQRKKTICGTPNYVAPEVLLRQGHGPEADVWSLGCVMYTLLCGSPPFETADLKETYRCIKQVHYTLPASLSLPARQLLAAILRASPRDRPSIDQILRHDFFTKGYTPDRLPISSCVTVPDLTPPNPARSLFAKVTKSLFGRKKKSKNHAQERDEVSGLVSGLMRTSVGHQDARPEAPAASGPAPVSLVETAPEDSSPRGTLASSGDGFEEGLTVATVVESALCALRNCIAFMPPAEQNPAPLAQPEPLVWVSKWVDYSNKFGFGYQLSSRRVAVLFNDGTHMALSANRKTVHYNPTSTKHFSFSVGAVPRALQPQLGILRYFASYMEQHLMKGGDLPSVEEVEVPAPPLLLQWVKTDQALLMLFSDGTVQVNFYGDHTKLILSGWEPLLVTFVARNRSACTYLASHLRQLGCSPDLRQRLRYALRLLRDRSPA
UniProt Q16566, sequence (whole entry, looked up): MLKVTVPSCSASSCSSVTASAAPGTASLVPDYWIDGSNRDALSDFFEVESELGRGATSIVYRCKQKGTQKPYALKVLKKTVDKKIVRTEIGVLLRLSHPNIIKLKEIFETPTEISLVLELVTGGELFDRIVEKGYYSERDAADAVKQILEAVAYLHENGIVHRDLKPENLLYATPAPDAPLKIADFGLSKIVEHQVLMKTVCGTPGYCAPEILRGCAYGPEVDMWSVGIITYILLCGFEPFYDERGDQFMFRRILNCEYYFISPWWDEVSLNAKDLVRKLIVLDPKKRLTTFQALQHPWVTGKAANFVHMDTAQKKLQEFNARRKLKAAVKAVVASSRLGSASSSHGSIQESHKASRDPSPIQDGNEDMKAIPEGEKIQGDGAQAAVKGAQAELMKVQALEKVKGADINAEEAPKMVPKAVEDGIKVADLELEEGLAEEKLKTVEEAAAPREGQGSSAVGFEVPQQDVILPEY
UniProt O14733, sequence (whole entry, looked up): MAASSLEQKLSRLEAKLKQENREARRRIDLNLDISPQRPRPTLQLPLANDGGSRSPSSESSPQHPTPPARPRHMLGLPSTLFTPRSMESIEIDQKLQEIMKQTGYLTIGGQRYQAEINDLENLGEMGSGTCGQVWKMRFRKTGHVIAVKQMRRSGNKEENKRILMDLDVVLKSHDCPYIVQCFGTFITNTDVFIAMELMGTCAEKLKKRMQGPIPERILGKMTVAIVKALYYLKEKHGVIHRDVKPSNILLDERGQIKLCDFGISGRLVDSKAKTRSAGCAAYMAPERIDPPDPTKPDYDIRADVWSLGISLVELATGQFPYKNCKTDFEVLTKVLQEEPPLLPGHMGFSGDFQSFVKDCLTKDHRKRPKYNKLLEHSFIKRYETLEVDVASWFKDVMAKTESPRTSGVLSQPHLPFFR

Sample 1
Compound: COc1cc(C(=O)N2CCC(N3CCN(C)CC3)CC2)ccc1Nc1ncc2c(n1)N(C)c1ccccc1C(=O)N2C
Read-out: kinase activity
Endpoint: remaining activity
BRSK2; 10 µM: 87 ± 9%
MARK1; 1 µM: 89 ± 4%
MARK4; 1 µM: 94 ± 4%
RSK1; 10 µM: 36 ± 47%
ERK8; 10 µM: 104 ± 6%
PKCa; 10 µM: 97 ± 4%

Sample 2
Cell line: mouse MPNST tumor cells
Method: high-content nuclear imaging
Refers to: cell number
Concentration: 10 µM
Time: 12 h
Notes: mean of 2 replicates
Baseline: plate mean
Reading: higher = more cells
Endpoint: nuclei count
Nc1ccc(S(=O)(=O)Nc2ccnn2-c2ccccc2)cc1: -0.643 z-score
Cc1cc(OCc2nnc(SC3CCCC3)n2-c2cccnc2)ccc1-c1ccc(S(C)(=O)=O)cc1: -6.49 z-score
CC(C)COCC(CN(Cc1ccccc1)c1ccccc1)N1CCCC1 (stereo not shown): -0.558 z-score
CC1CC(C)(C)N(C(=O)CN2C(=O)c3ccccc3C2=O)c2ccccc21 (stereo not shown): -0.21 z-score
CCN(c1ccccc1)c1cc(=NC)n(C)c(C)n1: -1.04 z-score
NC(=O)N/N=C/c1ccc([N+](=O)[O-])o1: -0.409 z-score
CCN(CC)CC(=O)Nc1c(C)cccc1C: 2.16 z-score

Sample 3
Compound: O=C1Cc2c([nH]c3ccc([N+](=O)[O-])cc23)-c2ccccc2N1
Read-out: enzyme activity
Action: inhibitor
Concentration: 0.5 µM
Baseline: control
Endpoint: remaining activity
CAMK4 (Homo sapiens, UniProt Q16566): 89.2%
RPS6KA4 (Homo sapiens, UniProt O75676): 90.6%
DDR2 (Homo sapiens, UniProt Q16832): 103%
MARK2 (Homo sapiens, UniProt Q7KZI7): 52.4%
KDR (Homo sapiens, UniProt P35968): 87.8%
GRK4 (Homo sapiens, UniProt P32298): 99.3%
NEK3 (Homo sapiens, UniProt P51956): 108%
Cyclin-dependent kinase 1, with cyclin A (CDK1, Homo sapiens, UniProt P06493): 54.5%
MAP2K1 (Homo sapiens, UniProt Q02750): 92.6%
TXK (Homo sapiens, UniProt P42681): 87.3%
PAK3 (Homo sapiens, UniProt O75914): 80.4%
MINK1 (Homo sapiens, UniProt Q8N4C8): 20.4%
PLK3 (Homo sapiens, UniProt Q9H4B4): 98.8%

Sample 4
SMILES: O=C1CCc2cc(Nc3cc(OC4CCOCC4)c([N+](=O)[O-])cc3Cl)ccc2N1
Read-out: cell-free assay
Method: competition with immobilised ligand
Concentration: 1 µM
Endpoint: remaining binding
BRSK1 (Homo sapiens, UniProt Q8TDC3): 100%
KIT (Homo sapiens, UniProt P10721, L576P): 100%
MAP2K7 (Homo sapiens, UniProt O14733): 100%
FGFR4 (Homo sapiens, UniProt P22455): 81%
MAP3K14 (Homo sapiens, UniProt Q99558): 81%
